Experimental data of several laboratories.
A part holds a random share of what one study measured.
UniProt P31749, sequence (whole entry, looked up): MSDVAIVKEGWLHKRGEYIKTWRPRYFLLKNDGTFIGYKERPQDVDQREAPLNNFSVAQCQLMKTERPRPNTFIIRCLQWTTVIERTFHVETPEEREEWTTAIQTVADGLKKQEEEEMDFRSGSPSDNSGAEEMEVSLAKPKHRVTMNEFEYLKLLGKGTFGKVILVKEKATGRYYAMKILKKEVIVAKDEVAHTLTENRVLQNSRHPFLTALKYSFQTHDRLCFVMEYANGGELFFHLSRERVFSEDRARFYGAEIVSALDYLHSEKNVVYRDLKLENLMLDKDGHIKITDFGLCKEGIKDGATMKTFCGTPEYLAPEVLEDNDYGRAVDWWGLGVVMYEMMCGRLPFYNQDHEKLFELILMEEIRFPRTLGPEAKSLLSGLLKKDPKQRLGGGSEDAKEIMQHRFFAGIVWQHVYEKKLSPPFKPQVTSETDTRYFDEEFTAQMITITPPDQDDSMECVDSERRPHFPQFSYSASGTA
UniProt P25098, sequence (whole entry, looked up): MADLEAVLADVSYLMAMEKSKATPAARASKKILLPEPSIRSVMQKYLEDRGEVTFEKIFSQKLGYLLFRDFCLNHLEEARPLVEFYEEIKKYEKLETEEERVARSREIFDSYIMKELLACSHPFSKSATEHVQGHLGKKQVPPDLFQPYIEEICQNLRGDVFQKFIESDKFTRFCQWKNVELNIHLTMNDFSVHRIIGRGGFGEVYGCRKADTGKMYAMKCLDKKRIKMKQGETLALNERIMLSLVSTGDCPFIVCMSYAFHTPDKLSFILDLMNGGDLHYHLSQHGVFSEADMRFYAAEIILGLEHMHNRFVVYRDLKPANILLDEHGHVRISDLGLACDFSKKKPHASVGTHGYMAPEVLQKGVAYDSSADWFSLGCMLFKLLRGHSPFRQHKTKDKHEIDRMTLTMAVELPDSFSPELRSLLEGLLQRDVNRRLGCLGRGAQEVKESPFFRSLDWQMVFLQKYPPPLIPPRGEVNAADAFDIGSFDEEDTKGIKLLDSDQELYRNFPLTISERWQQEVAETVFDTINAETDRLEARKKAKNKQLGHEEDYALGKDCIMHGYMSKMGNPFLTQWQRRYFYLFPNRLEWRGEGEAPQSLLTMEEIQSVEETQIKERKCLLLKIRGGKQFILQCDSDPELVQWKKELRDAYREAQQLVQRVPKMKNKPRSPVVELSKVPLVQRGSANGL

Set 1
Target: UBE2D2 UBC core domain (UniProt P62837)
UniProt P62837, sequence (whole entry, looked up): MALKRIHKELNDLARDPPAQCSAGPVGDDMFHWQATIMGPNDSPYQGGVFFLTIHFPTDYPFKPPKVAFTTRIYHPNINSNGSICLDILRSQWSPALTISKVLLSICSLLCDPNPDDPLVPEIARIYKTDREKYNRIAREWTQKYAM
Method: yeast two-hybrid
Matrix: yeast
Notes: mostly zero background
Reference: not given
Reading: higher = stronger interaction
B1: RNF32 RING domain (UniProt Q9H0A6); chain VQALRRETHECSICLAPLSAAGGQRVGAGRRSREMALLSCSHVFHHACLLALEEFSVGDRPPFHACPLCRSCYQKKILEC
B2: TRIM32 RING domain (UniProt Q13049); chain NLDALREVLECPICMESFTEEQLRPKLLHCGHTICRQCLEKLLASSINGVRCPFCSKITRITSLTQ
B3: MDM2 RING domain (UniProt Q00987); chain TQDKEESVESSLPLNAIEPCVICQGRPKNGCIVHGKTGHLMACFTCAKKLKKRNKPCPVCRQPIQMIVLTYFP
| Molecule | lacZ reporter activity |
| --- | --- |
| B1 (RNF32 RING domain) | 0 |
| FLSKVEETFQCICCQELVFRPITTVCQHNVCKDCLDRSFRAQVFSCPACRYDLGRSYAMQ (UHRF1 RING domain (UniProt Q96T88)) | 0 |
| KITELNPHLMCALCGGYFIDATTIVECLHSFCKTCIVRYLETNKYCPMCDVQVHKTRPLL (PCGF2 RING domain (UniProt P35227)) | 0 |
| B2 (TRIM32 RING domain) | 0 |
| MEEMEEELKCPVCGSFYREPIILPCSHNLCQACARNILVQTPESESPQSHRAAGSGVSDY (TRIM9 RING domain (UniProt Q9C026)) | 0 |
| B3 (MDM2 RING domain) | 0 |
| PLRRLQEEKLCKICMDRHIAVVFIPCGHLVTCKQCAEAVDRCPMCSAVIDFKQRVF (BIRC8 RING domain (UniProt Q96P09)) | 0 |
| EIKDYKARLTCPCCNMRKKDAVLTKCFHVFCFECVKTRYDTRQRKCPKCNAAFGANDFHR (RNF20 RING domain (UniProt Q5VTR2)) | 0 |

Set 2
Target: HLA class I histocompatibility antigen, A alpha chain, allele A*26:03 (Homo sapiens, UniProt P04439)
Observed: peptide-MHC binding
Molecule type: peptide
Tested at: concentration not given
| Molecule | binding |
| --- | --- |
| MGKTITDVK | inactive |
| KLYVNGKAY | inactive |
| HEGDIVPLF | inactive |
| EELKSLFNTV | inactive |
| RSLFNTVAVLY | inactive |
| VFMDNAFKK | inactive |
| YHLGGIEGL | inactive |
| SQIETGTPF | inactive |

Other studies, line by line
| SMILES | tested on | assay | conditions | quantity | result |
| --- | --- | --- | --- | --- | --- |
| CCO[C@H]1O[C@@H]2O[C@@]3(C)CC[C@H]4[C@H](C)CC[C@@H]([C@H]1C)[C@@]24OO3 | HaCaT | – | 100 µM, 60 h | viability | 43.4% |
| CC(CN(C)C)CN1c2ccccc2Sc2ccccc21 (centres unmarked) | VeroE6/TMPRSS2 | – | 17.5 h | CC50 | 26.3 µM |
| Cc1cc(C)c(-n2ccn3nc(-c4cccnc4)cc23)cc1NC(=O)c1cc(C#N)cc(S(F)(F)(F)(F)F)c1 | RAC-alpha serine/threonine-protein kinase (AKT1, Homo sapiens, UniProt P31749) | cell-free assay, competition with immobilised ligand | 0.1 µM | remaining binding | 90.9% |
| CC(C)(C)c1cc(C=C(C#N)C#N)cc(Br)c1O | Beta-adrenergic receptor kinase 1 (GRK2, Homo sapiens, UniProt P25098) | enzyme activity, inhibitor | 0.5 µM | remaining activity | 83.7% |

Excerpt of the above (set 1):
| Molecule | lacZ reporter activity |
| --- | --- |
| B3 (MDM2 RING domain) | 0 |
| PLRRLQEEKLCKICMDRHIAVVFIPCGHLVTCKQCAEAVDRCPMCSAVIDFKQRVF (BIRC8 RING domain (UniProt Q96P09)) | 0 |
| EIKDYKARLTCPCCNMRKKDAVLTKCFHVFCFECVKTRYDTRQRKCPKCNAAFGANDFHR (RNF20 RING domain (UniProt Q5VTR2)) | 0 |
